{"data": "Published values of several laboratories", "note": "Parts stem from different laboratories: compare values within a part only. Positions count from the first letter of the parent shown."}
{"data": "Sample 1", "target": "Interferon regulatory factor 7, full length, phosphomimetic (IRF7, Homo sapiens, UniProt Q92985, residues 1-503, S471D/S472D/S475D/S476D/S477D/S483D/S484D/S487D)", "method": "protein-binding microarray", "molecule type": "double-stranded DNA, one strand shown", "medium": "in vitro", "concentration": "2200 nM top", "notes": "60-bp whole probe", "added": "salmon DNA 0.4 mg/ml", "reference": "random background probes", "direction": "higher = stronger binding", "all sequences stand within": "GCCTAGCAC … GTCTTGATTCGCTTGACGCTGCTG", "Residues (chain)": "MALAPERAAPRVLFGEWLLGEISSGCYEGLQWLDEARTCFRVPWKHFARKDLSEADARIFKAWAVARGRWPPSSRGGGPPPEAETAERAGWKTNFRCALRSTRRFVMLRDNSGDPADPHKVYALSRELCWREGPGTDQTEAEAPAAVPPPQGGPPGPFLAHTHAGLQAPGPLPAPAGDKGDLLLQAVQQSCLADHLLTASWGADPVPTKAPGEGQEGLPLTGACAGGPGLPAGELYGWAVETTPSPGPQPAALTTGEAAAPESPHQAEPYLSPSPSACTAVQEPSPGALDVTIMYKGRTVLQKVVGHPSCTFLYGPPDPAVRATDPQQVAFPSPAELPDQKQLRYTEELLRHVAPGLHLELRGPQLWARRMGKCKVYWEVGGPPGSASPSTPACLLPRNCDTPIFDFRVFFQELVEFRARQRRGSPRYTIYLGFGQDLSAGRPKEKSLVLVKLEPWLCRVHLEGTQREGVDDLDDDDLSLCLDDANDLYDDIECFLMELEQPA"}
{"Sequence": "GACGGTCTCCTACTGCTGACGTGCTAG", "fitted relative affinity [z-score]": 0.575}
{"Sequence": "TTAGGTGTCGGACTGGGTTAGTGCTAG", "fitted relative affinity [z-score]": -0.339}
{"Sequence": "GACGGTTTCGGTATCTGGACGTGCTAG", "fitted relative affinity [z-score]": 7.67}
{"Sequence": "TCAATTCTAGCCTATAGAACTGTGCTA", "fitted relative affinity [z-score]": 0.115}
{"Sequence": "GACGGAGTGCTTATCCTGACGTGCTAG", "fitted relative affinity [z-score]": 0.588}
{"Sequence": "GGTCTTCTGGGCTGTTTGGTTGTGCTA", "fitted relative affinity [z-score]": -0.188}
{"data": "Sample 2", "target": "Histone acetyltransferase KAT6A, winged helix 2, GST fusion (KAT6A, Homo sapiens, UniProt Q92794, residues 85-181)", "method": "protein binding microarray", "molecule type": "double-stranded DNA, one strand shown", "medium": "in vitro", "concentration": "not given", "notes": "8-mer, flanks averaged, mean of 2 arrays, mostly near background", "reference": "not given", "direction": "higher = stronger binding", "Target sequence (chain)": "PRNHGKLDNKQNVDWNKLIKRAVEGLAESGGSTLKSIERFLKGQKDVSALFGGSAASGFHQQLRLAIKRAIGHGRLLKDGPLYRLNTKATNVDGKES"}
{"Sequence": "CGCTTAAC", "E-score": 0.111}
{"Sequence": "ACACGGCA", "E-score": 0.0439}
{"Sequence": "TATTTTGA", "E-score": -0.0765}
{"Sequence": "AAGGCCTA", "E-score": -0.151}
{"Sequence": "CACACATG", "E-score": -0.235}
{"Sequence": "CTCCACGA", "E-score": -0.0322}
{"Sequence": "TCAACTGA", "E-score": -0.0537}
{"data": "Sample 3", "target": "CCNE1, cyclin fold, Cln2 fusion (human)", "method": "yeast growth competition, sequencing", "medium": "yeast", "notes": "weak parent motif", "reference": "not given", "direction": "higher = stronger binding", "starting sequence": "ORC1 docking peptide (human); PRARKRLELGNLG"}
{"Change": "PRARKRLYLGNLG [E8Y]", "normalised enrichment score": 0.254}
{"Change": "PRARKRLELGNLE [G13E]", "normalised enrichment score": 0.612}
{"Change": "PRARKRFELGNLG [L7F]", "normalised enrichment score": -0.013}
{"Change": "PFARKRLELGNLG [R2F]", "normalised enrichment score": 0.56}
{"data": "Mixed results"}
{"Molecule": "PhoQ, residues 284 288 289 292 302 303 SIHMAM", "target": "PhoP, residues 12 14 15 18 19 AGCRL (Escherichia coli, UniProt P23836)", "test": "Sort-seq, refers to: YFP reporter", "system": "E. coli", "setting": "PhoQ-PhoP variant library, added: 10 µM Mg2+", "how to read": "reference: high Mg2+ state, higher = stronger signaling", "quantity": "fold induction", "value": 16.2}
